Published values pooled from the literature.
A part holds a random share of what one study measured.

Study 1 — method: RNA Bind-n-Seq; form: RNA; sample: in vitro; tested at: 200 nM; setting: whole 134-nt RNA, ends assumed; together with: 150 mM KCl; relative to: input library; direction: higher = stronger binding
Target: Ras GTPase-activating protein-binding protein 1, full length (G3BP1, Homo sapiens, UniProt Q13283)
UniProt Q13283, sequence (whole entry, looked up): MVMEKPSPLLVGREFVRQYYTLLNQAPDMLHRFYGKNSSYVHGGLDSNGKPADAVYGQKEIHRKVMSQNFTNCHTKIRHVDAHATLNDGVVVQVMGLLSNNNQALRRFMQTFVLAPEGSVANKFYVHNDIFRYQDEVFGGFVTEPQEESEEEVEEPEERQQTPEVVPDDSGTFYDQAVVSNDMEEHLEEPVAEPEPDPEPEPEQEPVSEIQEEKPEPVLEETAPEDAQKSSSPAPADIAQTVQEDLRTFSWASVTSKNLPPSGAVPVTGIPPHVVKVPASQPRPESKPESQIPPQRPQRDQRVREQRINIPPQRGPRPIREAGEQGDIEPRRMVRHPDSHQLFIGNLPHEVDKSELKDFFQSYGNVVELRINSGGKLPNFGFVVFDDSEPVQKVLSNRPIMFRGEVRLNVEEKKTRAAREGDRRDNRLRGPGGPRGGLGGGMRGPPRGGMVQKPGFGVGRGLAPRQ
All sequences stand within: GGGAGUUCUACAGUCCGACGAUC … UGGAAUUCUCGGGUGUCAAGG
| Sequence | log2 enrichment |
| --- | --- |
| UCCUGUGCUACACAUCGUAUGUACCGAAUCGGGGAAAGGGGUUUUUUUGGGGAAAGGGGAAAGUAUUAUGUUACGCCGUUCGGAUCUGCA | 0.915 |
| CUCAAGUCCUGUGCUACACAUCGUAUGUACCGAAUCGGAAGGAAGGGGAAGGGGAAAGUAUUAUGUUACGCCGUUCGGAUCUGCACUUCC | -0.0125 |
| ACCAUGCAGGUGGGCAUCUUUGGGAAGCGGGGCAAGGGGGGGAUAGGGAGGGGGGUAACACUUUGGGAACAGGUGGUCCCAGGUCGUUUC | 1.33 |
| UCCUGUGCUACACAUCGUAUGUACCGAAUCGGAAAAAAGGGAAAAAAGGGGAAAAAAGGAAAGUAUUAUGUUACGCCGUUCGGAUCUGCA | -0.884 |
| ACCAUGCAGGUGGGCAUCUUUGGGAAGUGGGGCAAGGGGGGGAUAGGGAGGGGGGUAAAAAUUUGGGAACAGGUGGUCCCAGGUCGUUUC | 1.28 |
| ACCAUGCAGGUGGGCAUCUUUGGGAAGUGGAGCAAGGGGGGGAUAGGGAGGGGGGUAACACUUUGGGAACAGGUGGUCCCAGGUCGUUUC | 1.1 |
| CACAGACAACAGGCACCCACACAGACACAGAGGGAAGGGGUUGGGAUGGGGACAGGGUGCACAGCAGGGCGGGGUAGGACCCCAGCCCCU | 1.8 |
| AGUCCUGUGCUACACAUCGUAUGUACCGAAUCGGGAAAAGGGAAAAGGGGAAAAGGGAAAGUAUUAUGUUACGCCGUUCGGAUCUGCACU | -0.0733 |
| UAACUUUAGAGGAGGAUCUGAUGGAUAUGGCAGUGGACCUGGAUUUGGGGAUGGCUAUAAUGGGUAUGGAGGAGGACCUGGAGGUGGCAA | 0.12 |
| AAGUCCUGUGCUACACAUCGUAUGUACCGAAUCGGGGUUUUGGUUUUGGGUUUUGGGAAAGUAUUAUGUUACGCCGUUCGGAUCUGCACU | -0.808 |
| CUGUGCUACACAUCGUAUGUACCGAAUCGGGUUUUUUUGGUUUUUUUGGGUUUUUUUGGGGAAAGUAUUAUGUUACGCCGUUCGGAUCUG | -1.02 |
| GCAGGAAGUAAAAACAAAUGGAAAUGCUUCGGAUAGUAGCAGGGGUGGGGGUUGCUAAGGAAAGGGUGGGAUGGGAGUGGGUAAAGAGUU | 0.724 |
| UCAAGUCCUGUGCUACACAUCGUAUGUACCGAAUCGGGAAAGGGAGGGUUUGGGAAAGUAUUAUGUUACGCCGUUCGGAUCUGCACUUCC | 0.918 |
| AGUCCUGUGCUACACAUCGUAUGUACCGAAUCGGAAAAAGGAAAAAGGAAAAAGGGGAAAGUAUUAUGUUACGCCGUUCGGAUCUGCACU | -1.13 |

Study 2 — target: human cyclin B1; observed: peptide binding; method: yeast competitive growth sequencing; form: peptide; organism: Saccharomyces cerevisiae; strain: cyclin B1-Cln2 fusion; tested at: concentration not given; setting: peptide tiling library; direction: direction not given
| Molecule | binding enrichment score |
| --- | --- |
| EHCRVLFLDHVMYTIH | -0.0109 |
| KVKRRLDLDIDGLQKE | 1.06 |
| NSMKELNFSHLPSNSV | -0.0801 |
| KRRLDLETDHQY | 0.399 |
| AGSAKRRLFGEDPPKE | 0.265 |
| PKNAKRNLSSEFAN | 0.279 |
| YLYLLLTQSLWCRV | 0.574 |
| SNFFDVIKQLFSDEKN | 1.08 |
| KSKHEEEEWTDDDLVE | -0.31 |
| RRRRLLFWDKETQI | 0.319 |
| VSRNLRSSLKSSLHTL | -0.163 |
| HPESPPRKRLKSKGSD | 0.634 |
| KRNLLNEFDRII | 0.891 |
| ELGMEHCEKFEISETS | 0.426 |
| SPREGHMMDALYAQVK | 0.205 |
| RRRIKLPESDSSED | 0.498 |
| KVRRNLFNQELLSP | 0.00306 |
| NLEPNAEFDKRTEFIT | -0.101 |
| MNQELLSVGSKRRRTG | 1.18 |
| ATNSSHTDAHEILVSD | 0.0747 |

Study 3 — method: competition protein-binding microarray; form: double-stranded DNA, one strand shown; sample: in vitro; tested at: 2 µM; together with: Cbf1 competitor, 0.05 µM; direction: higher = stronger binding; all sequences stand within: … GTCTTGATTCGCTTGACGCTGCTG
Target: Phosphate system positive regulatory protein PHO4, full length, GST-tagged (PHO4, Saccharomyces cerevisiae, UniProt P07270, residues 1-312)
Setting: whole 60-bp probe, lowest competitor level
Residues (chain): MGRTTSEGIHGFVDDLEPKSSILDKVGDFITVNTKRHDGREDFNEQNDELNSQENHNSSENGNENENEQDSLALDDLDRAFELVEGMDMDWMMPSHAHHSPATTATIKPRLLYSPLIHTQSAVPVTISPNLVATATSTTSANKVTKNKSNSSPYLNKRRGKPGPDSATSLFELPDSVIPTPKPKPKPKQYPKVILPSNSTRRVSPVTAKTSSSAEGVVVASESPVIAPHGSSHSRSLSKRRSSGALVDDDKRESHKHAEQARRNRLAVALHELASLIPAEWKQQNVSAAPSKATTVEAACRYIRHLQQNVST
| Sequence | fluorescence intensity [a.u.] |
| --- | --- |
| TAGTATCTTGCATTGCACGGGCTTTATATTGAGCAA | 9170 |
| CTTTCCCGATCTTGTCACCCGACTTTAGCACATTTG | 3910 |
| TGATGAAATCTCTGTGACCTGGAGCATCAATAACGG | 3360 |
| CATACCCAACCTTGTTCCGTGGGTGAAGATATTTGT | 5050 |
| TTTCAAAAAAGGAACTTATCTCTGACAATTTTCGAC | 2790 |
| AAAGCGGTAATTTGTCACCCGACTTCACATATCTAT | 3210 |
| CTTGGTGAAAATGGTAACGTGACTCGGTGTTGTTTT | 8210 |
| AAGGTGGAACGATTCCACGTGGATTGTCTAAACTGT | 14800 |
| CTCAGTACTGATTGACACATGATTATACTGCGAGAC | 7250 |
| GGCGTTTCTGATCTTCATGTGGTCGGAGTGGAATTC | 5410 |
| CCTCAGGAAGACCTAAATGTGACGGTTCATCGTAGT | 4420 |
| GAAAGTACGAATTACCACGTCACTGTCATTTAGGTT | 5830 |
| CATACCCAACCTTTTCACGTGAGCTAAGATATTTGT | 11700 |
| CATATGGAGCATTTGCACGGGCCCTCAGGATAGAAG | 9210 |
| AAGTTTTTTTCTACACGCATGAGCAGAATTAGACGG | 7350 |
| CTCTTTGAATGCTGTCACCTGTTACTGTGAAGACCA | 5590 |
| CTGCATGGTACTGCTCATATGACAACTCCCACCCAG | 6460 |
| CGTCCTAGTGATTGGGGAGTGGGTGCCATGAGGAAG | 6980 |
| CGGGGTTAAGTTTCACACGTGTTTTGCTTGCAGCAG | 15200 |
| GCTCTGTCATCGCTCAACGTGGAAGCTCCGACGGTG | 10100 |

Study 4 — method: RNA Bind-n-Seq; form: RNA; sample: in vitro; tested at: 365 nM; relative to: no-protein control; direction: higher = stronger binding
Target: RNA binding protein fox-1 homolog 2, RRM domain, GST-SBP tag (RBFOX2, Homo sapiens, UniProt O43251-10, residues 100-194)
Setting: natural RNA segment, single round, ends assumed
All sequences stand within: GGGAGUUCUACAGUCCGACGAUC … UGGAAUUCUCGGGUGCCAA
Target sequence (chain): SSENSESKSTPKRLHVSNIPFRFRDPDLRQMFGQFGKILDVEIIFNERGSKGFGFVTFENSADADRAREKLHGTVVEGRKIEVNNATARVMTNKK
| Sequence | RBNS enrichment (R) |
| --- | --- |
| AGGGGCUCCCAGCCCUCCUUCCCAGGCUGAUGCUGGGUCCUCUCUCUCUUUGGGGCUUCUCCCUCCCGUUUCAGGGGAAAGGUCUGAGUCUCCACGUUUCAGACCAGCUU | 0.24 |
| UUGGAUUCAAGUUUAAUUAGCUAAUAACCAUGGAGAUUGUUUUACAACUUUGUGAUAUGGUCAAGCUCCCGUUUAAGAAAUGGGAGUCUGUUGUUGCAGAUCAGUAAUUG | 0.277 |
| GCUGUAGUGGUUGGUGGAUCCUGGCAUUUCAGAGAAAAGGUCAUGAGGUGGUUUUGGGCUGUGGUUUCCAGUCUGACCCAGGAGGAACUGGCUAGGCUGCUUCAGUUUAC | 1.11 |
| CAGCAAACAGCUGAAAGAGGAGGACCCCUGCCUUCCUCUGAGGACAGGCUCUAGAGAGAGGGAGAAACAAGUGGACCUCGUCCCAUCUUCACUCUUCACUUGAGUUGGCU | 0.253 |
| AUUAUGAAAAUUGUAUUAUAAUAUCUGGAAACACAACAUUUUCCUCUGGCAGGUGACUUUUGUACGAAAUGAAAAAAAAAAAACCUGUAUUUUUUUUGUUGUUCUUUUGU | 1.15 |
| UCCAUGUGUGUGCGAGCACGCGUGUCUGUGUCUGUGUGUGCAUACUUCUGUGACUUUAGACAUGCUUUCUUGUAGUGCUUCUGCAAAGGGACUUUUUUUGAAUCCUCAGU | 0.48 |
| UCAGAUGACGUCCCCAUGGUGAUAGCCUGAAGAGCUUUCCUCACUAGAAACCAAAUGGUGUAAAUAUUUUAUUUGAUAAAGAUAGUUGAUGGUUUAUUUUAAAAGAUGCA | 2.97 |
| AGUUGAUAGAAUUCAAAAAGGCCAUCUUUUUGCUUUCACAUCAAUAAAAUUUACCAAGUAAUAGAUCAGUACUCACUAAUAUUUUUGAGACCAUAGUUGUCUGGUCAGAA | 0.301 |
| CCCUCUUAUUUUUAACUUGGAUACCUGCUAUUCUGCCAAAAGACAAUUUCUAGAGUAGUUUUGAAUGGGUUGAUUUCCCCCACUCCCACAAACUCUGAAGCCAGUGUCUA | 0.564 |
| AUCUUCUGUUUCUUUGAAUAGAAAGCACCACAGUGUUUUGCACUUGCCUCCAGUAAAGUGCCCUGGGAAGGGAGCUGGGCAGUGUUUGUGGACGAGAGACUGUAACGAUG | 0.636 |
| GGCUACAGCUUUCAGCCACUUACGGCCCCAGCUGGACAGAGCAGUGCUGUGUGGGUACUCCAAGUGCUGACUUAGGAUAUUAAUGUGCUGCAACACAUUUGUCACCAGGC | 0.38 |
| UACUUAAUAGUCUUUGGAGGUUUGUAAGGUGUUUUUUUGUUUUGUUUUAAUGUAUUUUAUUGAUUAUCUUCCCGGUUAGUCGAUUAUUUUUCCUCCUCCAAUUGUUUUAC | 3.38 |

Study 5 — method: protein binding microarray; form: double-stranded DNA, one strand shown; sample: in vitro; tested at: not given; relative to: not given; direction: higher = stronger binding
Target: Histone acetyltransferase KAT6A, winged helix 2, GST fusion (KAT6A, Homo sapiens, UniProt Q92794, residues 85-181)
Setting: 8-mer, flanks averaged, mean of 2 arrays, mostly near background
Target sequence (chain): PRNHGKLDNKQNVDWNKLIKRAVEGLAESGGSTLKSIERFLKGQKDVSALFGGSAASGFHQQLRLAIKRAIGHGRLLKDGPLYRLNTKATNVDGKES
| Sequence | E-score |
| --- | --- |
| CGTGATTA | -0.00972 |
| CGATTTTA | -0.0744 |
| CCCGTGTC | 0.158 |
| GTTCCGCA | 0.041 |
| CCGACTTA | 0.117 |
| CGAGGCTC | 0.0629 |
| CCGGTATC | 0.00186 |
| CGGCGAAA | 0.196 |
| ACCCAGTG | -0.091 |
| ACGATAGA | -0.158 |
| AACCCTTG | -0.0565 |
| ATACTCAC | 0.0106 |
| GCCACCAA | -0.0188 |
| AAGGAATT | -0.137 |
| GATAGTAC | -0.0492 |
| GGTCAAAA | 0.0288 |
| GAGAAGCC | 0.0315 |
| AGATATTG | -0.0325 |
| CCGTAGCG | -0.0743 |
| CGACAGTA | 0.063 |
| CGGCATGC | 0.237 |

For quick reference, copied from above (study 1):
| Sequence | log2 enrichment |
| --- | --- |
| UCAAGUCCUGUGCUACACAUCGUAUGUACCGAAUCGGGAAAGGGAGGGUUUGGGAAAGUAUUAUGUUACGCCGUUCGGAUCUGCACUUCC | 0.918 |
| UCCUGUGCUACACAUCGUAUGUACCGAAUCGGAAAAAAGGGAAAAAAGGGGAAAAAAGGAAAGUAUUAUGUUACGCCGUUCGGAUCUGCA | -0.884 |
| AGUCCUGUGCUACACAUCGUAUGUACCGAAUCGGGAAAAGGGAAAAGGGGAAAAGGGAAAGUAUUAUGUUACGCCGUUCGGAUCUGCACU | -0.0733 |
| UAACUUUAGAGGAGGAUCUGAUGGAUAUGGCAGUGGACCUGGAUUUGGGGAUGGCUAUAAUGGGUAUGGAGGAGGACCUGGAGGUGGCAA | 0.12 |
| AAGUCCUGUGCUACACAUCGUAUGUACCGAAUCGGGGUUUUGGUUUUGGGUUUUGGGAAAGUAUUAUGUUACGCCGUUCGGAUCUGCACU | -0.808 |
